Measurements collected from several papers.
HTR1F: 5-hydroxytryptamine receptor 1F (HTR1F, Homo sapiens, UniProt P30939)
Chain of UniProt P30939 (whole entry, looked up): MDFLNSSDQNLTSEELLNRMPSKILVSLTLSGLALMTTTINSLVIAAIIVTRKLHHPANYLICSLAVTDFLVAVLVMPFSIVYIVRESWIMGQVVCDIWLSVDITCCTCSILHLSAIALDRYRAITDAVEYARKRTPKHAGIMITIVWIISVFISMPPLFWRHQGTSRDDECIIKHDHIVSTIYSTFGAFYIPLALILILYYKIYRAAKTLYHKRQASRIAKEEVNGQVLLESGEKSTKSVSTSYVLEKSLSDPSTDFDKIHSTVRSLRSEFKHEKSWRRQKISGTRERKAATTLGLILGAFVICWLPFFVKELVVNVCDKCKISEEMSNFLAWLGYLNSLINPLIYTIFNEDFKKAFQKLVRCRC
HLA class I histocompatibility antigen, A alpha chain: HLA class I histocompatibility antigen, A alpha chain (Homo sapiens, UniProt P04439)
TEAD4: Transcriptional enhancer factor TEF-3 (TEAD4, Homo sapiens, UniProt Q15561)
Chain of UniProt Q15561 (whole entry, looked up): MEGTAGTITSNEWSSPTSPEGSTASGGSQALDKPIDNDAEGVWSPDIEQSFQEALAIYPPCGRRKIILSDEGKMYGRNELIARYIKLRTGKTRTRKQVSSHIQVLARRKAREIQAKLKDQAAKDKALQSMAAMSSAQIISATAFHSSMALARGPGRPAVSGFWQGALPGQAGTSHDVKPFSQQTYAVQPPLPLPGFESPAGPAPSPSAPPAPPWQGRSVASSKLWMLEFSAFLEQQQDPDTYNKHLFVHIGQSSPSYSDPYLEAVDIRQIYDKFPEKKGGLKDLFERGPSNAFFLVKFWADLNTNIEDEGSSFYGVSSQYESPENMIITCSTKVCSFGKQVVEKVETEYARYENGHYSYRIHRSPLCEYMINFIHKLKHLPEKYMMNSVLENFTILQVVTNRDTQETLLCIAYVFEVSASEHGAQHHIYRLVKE
FABP4: Fatty acid-binding protein, adipocyte (FABP4, Homo sapiens, UniProt P15090)
Chain of UniProt P15090 (whole entry, looked up): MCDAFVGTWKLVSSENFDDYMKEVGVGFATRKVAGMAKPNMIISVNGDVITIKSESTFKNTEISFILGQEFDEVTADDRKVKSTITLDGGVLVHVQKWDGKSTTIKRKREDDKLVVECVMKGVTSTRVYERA
Chain of UniProt P41595 (whole entry, looked up): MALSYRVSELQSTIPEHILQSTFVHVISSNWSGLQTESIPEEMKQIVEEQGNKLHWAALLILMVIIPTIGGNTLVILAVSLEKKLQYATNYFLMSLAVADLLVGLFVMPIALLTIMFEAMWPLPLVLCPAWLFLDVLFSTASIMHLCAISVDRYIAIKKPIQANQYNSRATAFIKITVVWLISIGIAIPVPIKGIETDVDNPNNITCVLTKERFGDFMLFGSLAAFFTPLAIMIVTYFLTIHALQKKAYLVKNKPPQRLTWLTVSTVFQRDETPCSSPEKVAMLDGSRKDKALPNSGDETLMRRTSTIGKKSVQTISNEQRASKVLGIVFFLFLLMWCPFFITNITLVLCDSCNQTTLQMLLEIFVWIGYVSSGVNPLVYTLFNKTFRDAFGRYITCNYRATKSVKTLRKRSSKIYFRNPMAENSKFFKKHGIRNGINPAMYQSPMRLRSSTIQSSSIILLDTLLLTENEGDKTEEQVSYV
Chain of UniProt P52895 (whole entry, looked up): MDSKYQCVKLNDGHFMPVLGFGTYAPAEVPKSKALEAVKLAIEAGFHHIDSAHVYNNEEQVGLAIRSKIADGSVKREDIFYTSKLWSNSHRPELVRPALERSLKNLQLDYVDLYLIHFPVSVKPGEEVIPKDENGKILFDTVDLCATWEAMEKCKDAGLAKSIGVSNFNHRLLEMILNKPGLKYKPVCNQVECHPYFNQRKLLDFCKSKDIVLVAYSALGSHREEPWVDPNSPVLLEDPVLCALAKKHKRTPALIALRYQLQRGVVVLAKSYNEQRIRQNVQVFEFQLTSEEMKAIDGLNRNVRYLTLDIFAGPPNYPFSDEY
Chain of UniProt Q16581 (whole entry, looked up): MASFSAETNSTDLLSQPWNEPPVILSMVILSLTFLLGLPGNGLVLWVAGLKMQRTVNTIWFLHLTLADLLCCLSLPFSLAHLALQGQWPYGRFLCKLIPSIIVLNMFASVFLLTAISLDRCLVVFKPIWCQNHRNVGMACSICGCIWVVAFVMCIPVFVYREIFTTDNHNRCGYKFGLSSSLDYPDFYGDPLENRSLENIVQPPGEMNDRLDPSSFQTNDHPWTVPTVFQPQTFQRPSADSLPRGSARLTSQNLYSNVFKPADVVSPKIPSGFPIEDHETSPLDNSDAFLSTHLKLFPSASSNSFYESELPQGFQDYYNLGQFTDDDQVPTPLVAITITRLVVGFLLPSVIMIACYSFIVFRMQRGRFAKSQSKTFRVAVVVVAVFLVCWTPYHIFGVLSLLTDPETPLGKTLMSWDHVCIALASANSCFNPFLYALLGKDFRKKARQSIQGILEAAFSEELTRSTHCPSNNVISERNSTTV
Chain of UniProt P05067 (whole entry, looked up): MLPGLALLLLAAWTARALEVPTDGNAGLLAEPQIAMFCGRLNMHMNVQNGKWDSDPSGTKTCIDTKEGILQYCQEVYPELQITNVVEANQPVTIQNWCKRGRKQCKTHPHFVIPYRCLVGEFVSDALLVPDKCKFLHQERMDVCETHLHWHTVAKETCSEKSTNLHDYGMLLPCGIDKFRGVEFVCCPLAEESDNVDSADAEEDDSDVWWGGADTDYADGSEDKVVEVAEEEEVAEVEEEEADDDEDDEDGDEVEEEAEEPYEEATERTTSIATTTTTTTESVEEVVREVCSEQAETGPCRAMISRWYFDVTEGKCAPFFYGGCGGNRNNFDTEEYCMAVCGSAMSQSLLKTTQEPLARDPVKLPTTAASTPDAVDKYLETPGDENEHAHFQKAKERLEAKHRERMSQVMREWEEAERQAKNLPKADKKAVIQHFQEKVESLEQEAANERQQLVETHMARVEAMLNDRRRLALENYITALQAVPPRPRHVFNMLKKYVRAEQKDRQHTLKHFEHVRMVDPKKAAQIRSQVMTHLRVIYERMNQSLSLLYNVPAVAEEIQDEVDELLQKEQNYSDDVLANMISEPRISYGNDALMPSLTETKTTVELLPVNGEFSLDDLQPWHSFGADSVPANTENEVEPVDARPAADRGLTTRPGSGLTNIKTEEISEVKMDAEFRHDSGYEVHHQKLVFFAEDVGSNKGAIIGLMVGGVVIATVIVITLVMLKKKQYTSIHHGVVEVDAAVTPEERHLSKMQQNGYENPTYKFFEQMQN
Chain of UniProt P48039 (whole entry, looked up): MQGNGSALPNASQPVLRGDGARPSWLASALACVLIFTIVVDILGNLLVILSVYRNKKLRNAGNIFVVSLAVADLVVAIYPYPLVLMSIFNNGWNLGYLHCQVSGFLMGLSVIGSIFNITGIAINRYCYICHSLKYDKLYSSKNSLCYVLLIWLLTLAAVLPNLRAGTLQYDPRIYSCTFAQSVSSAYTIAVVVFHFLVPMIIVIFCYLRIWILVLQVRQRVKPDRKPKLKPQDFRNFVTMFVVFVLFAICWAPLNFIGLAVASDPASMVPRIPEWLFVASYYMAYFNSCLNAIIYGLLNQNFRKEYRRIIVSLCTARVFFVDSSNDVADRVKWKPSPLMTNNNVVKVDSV
Chain of UniProt P27338 (whole entry, looked up): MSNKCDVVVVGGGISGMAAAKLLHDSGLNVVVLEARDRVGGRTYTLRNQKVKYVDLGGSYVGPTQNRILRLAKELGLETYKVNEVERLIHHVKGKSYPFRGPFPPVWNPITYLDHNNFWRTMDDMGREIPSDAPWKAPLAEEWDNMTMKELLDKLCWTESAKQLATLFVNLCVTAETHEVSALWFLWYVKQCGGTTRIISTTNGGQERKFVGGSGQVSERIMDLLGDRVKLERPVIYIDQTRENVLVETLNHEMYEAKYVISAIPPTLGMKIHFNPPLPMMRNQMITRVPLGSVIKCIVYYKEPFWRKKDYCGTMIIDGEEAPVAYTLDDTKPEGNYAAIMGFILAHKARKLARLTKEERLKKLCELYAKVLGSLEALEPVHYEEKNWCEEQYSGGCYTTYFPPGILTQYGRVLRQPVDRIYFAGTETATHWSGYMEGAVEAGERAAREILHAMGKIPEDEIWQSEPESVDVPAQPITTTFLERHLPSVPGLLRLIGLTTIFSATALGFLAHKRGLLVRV
Chain of UniProt P35368 (whole entry, looked up): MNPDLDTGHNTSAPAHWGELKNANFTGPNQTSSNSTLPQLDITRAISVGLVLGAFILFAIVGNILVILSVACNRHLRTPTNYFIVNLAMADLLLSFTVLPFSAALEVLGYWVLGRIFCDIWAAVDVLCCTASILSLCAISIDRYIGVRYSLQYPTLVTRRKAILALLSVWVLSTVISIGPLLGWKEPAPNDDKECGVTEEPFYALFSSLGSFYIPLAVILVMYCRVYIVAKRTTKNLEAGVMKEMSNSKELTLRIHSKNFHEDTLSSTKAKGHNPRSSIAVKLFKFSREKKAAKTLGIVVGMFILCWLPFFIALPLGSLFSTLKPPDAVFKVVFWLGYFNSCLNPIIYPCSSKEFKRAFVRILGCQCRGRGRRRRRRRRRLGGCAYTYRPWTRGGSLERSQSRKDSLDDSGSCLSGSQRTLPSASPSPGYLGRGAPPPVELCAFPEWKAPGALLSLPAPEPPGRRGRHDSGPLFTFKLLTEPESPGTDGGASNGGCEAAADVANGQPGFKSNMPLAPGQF

CC(N)Cc1c[nH]c2ccc(OCc3cccs3)cc12 (stereo not shown)  EC50 (HTR1F; G protein activation, agonist, BRET): 0.895 µM
CSCC[C@H](NC(=O)[C@@H](N)CCCCN)C(=O)N[C@@H](Cc1ccccc1)C(=O)N[C@@H](CC(=O)O)C(=O)N[C@@H](CCC(=O)O)C(=O)N[C@@H](Cc1ccccc1)C(=O)N[C@@H](Cc1c[nH]cn1)C(=O)N[C@H](C(=O)N[C@@H](Cc1ccc(O)cc1)C(=O)O)C(C)C  IC50 (HLA class I histocompatibility antigen, A alpha chain; cell-free assay): 0.037 µM
COc1cc(N2CC[C@@]3(O)C(=O)c4cc(C)c(C)cc4N=C23)ccn1  Ki (Myosin-7 (MYH7, Bos taurus, UniProt Q9BE39); ATPase activity, inhibitor): 17 µM
CSCC[C@H](NC(=O)[C@@H]1CCCN1C(=O)[C@@H](N)C(C)C)C(=O)N[C@@H](CCCNC(=N)N)C(=O)N[C@@H](CC(C)C)C(=O)N[C@@H](CCCNC(=N)N)C(=O)N[C@@H](CCCCN)C(=O)N[C@@H](CC(C)C)C(=O)N1CCC[C@H]1C(=O)N[C@@H](C)C(=O)N[C@@H](CO)C(=O)N[C@@H](Cc1ccccc1)C(=O)N[C@@H](Cc1ccccc1)C(=O)N[C@@H](CCCCN)C(=O)N1CCC[C@H]1C(=O)N1CCC[C@H]1C(=O)N[C@@H](CCC(=O)O)C(=O)O  Kd (TEAD4; binding, SPR; pH 7.4): 48.3 µM
CC(C)[C@H](NC(=O)[C@H](Cc1ccccc1)NC(=O)[C@H](CCCNC(=N)N)NC(=O)[C@H](CC(=O)O)NC(=O)[C@H](Cc1ccc(O)cc1)NC(=O)[C@@H](NC(=O)[C@@H](N)CCCCN)C(C)C)C(=O)N[C@@H](Cc1c[nH]cn1)C(=O)N[C@@H](Cc1ccccc1)C(=O)O  IC50 (HLA class I histocompatibility antigen, A alpha chain; cell-free assay): 0.0059 µM
Cc1cc(=O)oc2cc(OCCCC[Se]C#N)ccc12  Ki (Carbonic anhydrase 9 (CA9, Homo sapiens, UniProt Q16790); enzyme activity, inhibitor, stopped-flow): 0.0349 µM
C[C@]12CC[C@H]3[C@@H](CCC4=CC(=O)CC[C@@]43C)[C@@H]1CC[C@@H]2C(=O)CO  EC50 (Mineralocorticoid receptor (NR3C2, Homo sapiens, UniProt P08235); reporter gene, agonist, luciferase): 0.0003 µM
N#Cc1ccc(N2CCN(C(=O)COc3ccc4[nH]cc(CCN)c4c3)CC2)cc1  EC50 (HTR1F; G protein activation, agonist, BRET): 1.57 µM
CC(C)C[C@H](NC(=O)[C@@H](N)[C@@H](C)O)C(=O)N[C@@H](CCC(N)=O)C(=O)N1CCC[C@H]1C(=O)N1CCC[C@H]1C(=O)N[C@@H](C)C(=O)N[C@@H](CO)C(=O)N[C@@H](CO)C(=O)N[C@@H](CCCNC(=N)N)C(=O)N[C@H](CCCNC(=N)N)C(=O)N[C@@H](CCCNC(=N)N)C(=O)N[C@@H](Cc1c[nH]cn1)C(=O)N[C@@H](Cc1ccccc1)C(=O)N[C@@H](Cc1c[nH]cn1)C(=O)N[C@@H](Cc1c[nH]cn1)C(=O)N[C@@H](C)C(=O)N[C@@H](CC(C)C)C(=O)N1CCC[C@H]1C(=O)N1CCC[C@H]1C(=O)N[C@@H](C)C(=O)N[C@@H](CCCCNC(=N)N)C(=O)O  EC50 (C3a anaphylatoxin chemotactic receptor (C3AR1, Homo sapiens, UniProt Q16581); β-arrestin recruitment, agonist, BRET): 0.511 µM
COc1ccc2cccc(C(CO)CNC(=O)CF)c2c1 (stereo not shown)  EC50 (Melatonin receptor type 1A (MTNR1A, Homo sapiens, UniProt P48039); cAMP, agonist, TR-FRET): 0.0178 µM
O=c1c(O)c(-c2ccc(O)c(O)c2)oc2cc(O)cc(O)c12  EC50 (Amyloid-beta precursor protein (APP, Homo sapiens, UniProt P05067); amyloid aggregation, inhibitor, fluorescence): 8 µM
CSCC[C@H](NC(=O)[C@H](CCCNC(=N)N)NC(=O)[C@@H](N)C(C)C)C(=O)N[C@@H](CCCNC(=N)N)C(=O)N[C@@H](CC(C)C)C(=O)N[C@@H](CCCNC(=N)N)C(=O)N[C@@H](CCCCN)C(=O)N[C@@H](CC(C)C)C(=O)N[C@@H](CCCNC(=N)N)C(=O)N[C@@H](C)C(=O)N[C@@H](CO)C(=O)N[C@@H](Cc1ccccc1)C(=O)N[C@@H](Cc1ccccc1)C(=O)N[C@@H](CCCCN)C(=O)N1CCC[C@H]1C(=O)N1CCC[C@H]1C(=O)N[C@@H](CCC(=O)O)C(=O)O  Kd (TEAD4; binding, SPR; pH 7.4): 9.44 µM
Cc1ccc2c(c1)C(=O)C1(O)CCN(c3ccccc3)C1=N2 (stereo not shown)  Ki (Myosin-9 (MYH9, Homo sapiens, UniProt P35579); ATPase activity, inhibitor): 2.9 µM
CC[C@H](C)[C@H](NC(=O)[C@@H]1CCCN1C(=O)[C@H](Cc1c[nH]cn1)NC(=O)[C@H](CCCCN)NC(=O)[C@H](Cc1ccccc1)NC(=O)[C@H](CC(C)C)NC(=O)[C@@H](N)CCCCN)C(=O)N[C@@H](CCC(N)=O)C(=O)N[C@@H](CC(C)C)C(=O)O  IC50 (HLA class I histocompatibility antigen, A alpha chain; cell-free assay): 0.043 µM
[2H]c1c([2H])c([C@]2([2H])CCCN2C(=O)C(C)(C)Oc2ccc3cn[nH]c3c2)c([2H])c([2H])c1C([2H])([2H])[2H]  remaining binding (Dual specificity tyrosine-phosphorylation-regulated kinase 1A (DYRK1A, Homo sapiens, UniProt Q13627); binding, competition with immobilised ligand; 1 µM): 88%
CSCC[C@H](NC(=O)[C@@H](N)CCCNC(=N)N)C(=O)N[C@@H](Cc1ccccc1)C(=O)NCC(=O)N1CCC[C@H]1C(=O)N1CCC[C@H]1C(=O)N[C@@H](CC(C)C)C(=O)N[C@H](C(=O)N[C@@H](Cc1ccccc1)C(=O)O)[C@@H](C)O  IC50 (HLA class I histocompatibility antigen, A alpha chain; cell-free assay): 0.099 µM
O=C(O)C(F)(F)C(F)(F)C(F)(F)C(F)(F)C(F)(F)F  Ki (FABP4; ligand displacement, fluorescence): 86.7 µM
O=C(O)C(F)(F)C(F)(F)C(F)(F)C(F)(F)C(F)(F)C(F)(F)C(F)(F)F  Ki (Aldo-keto reductase family 1 member C2 (AKR1C2, Homo sapiens, UniProt P52895); enzyme activity, inhibitor, HPLC): 0.543 µM
CSCC[C@H](NC(=O)[C@@H](N)CCCNC(=N)N)C(=O)N[C@@H](Cc1ccccc1)C(=O)N[C@@H](CCCCN)C(=O)N[C@@H](Cc1c[nH]cn1)C(=O)N1CCC[C@H]1C(=O)N[C@@H](CC(C)C)C(=O)N[C@@H](CCC(N)=O)C(=O)N[C@@H](Cc1ccccc1)C(=O)O  IC50 (HLA class I histocompatibility antigen, A alpha chain; cell-free assay): 0.021 µM
COc1cc2c(cc1OC)CN(CCc1ccc(NC(=O)c3cccc4c(=O)c5cccc(OC)c5[nH]c34)cc1)CC2  Ki (Alpha-1B adrenergic receptor (ADRA1B, Homo sapiens, UniProt P35368); cell-free assay): 0.196 µM
CSCC[C@H](NC(=O)[C@H](CO)NC(=O)[C@H](CC(C)C)NC(=O)[C@H](CO)NC(=O)[C@H](Cc1c[nH]cn1)NC(=O)CNC(=O)[C@H](Cc1ccc(O)cc1)NC(=O)[C@H](CC(C)C)NC(=O)[C@@H](N)CCCNC(=N)N)C(=O)O  IC50 (HLA class I histocompatibility antigen, A alpha chain; cell-free assay): 0.014 µM
O=C(O)C(F)(F)C(F)(F)C(F)(F)C(F)(F)C(F)(F)C(F)(F)C(F)(F)C(F)(F)C(F)(F)C(F)(F)F  Ki (FABP4; ligand displacement, fluorescence): 1.09 µM
C=C(C)[C@H](CC=C(C)C)Cc1c(O)cc(OC)c2c1O[C@H](c1ccc(O)cc1O)CC2=O  Ki (Amine oxidase [flavin-containing] B (MAOB, Homo sapiens, UniProt P27338); enzyme activity, inhibitor): 12.3 µM
CC(C)C[C@H](NC(=O)[C@@H](NC(=O)[C@H](Cc1c[nH]cn1)NC(=O)[C@H](CC(=O)O)NC(=O)[C@H](CC(N)=O)NC(=O)[C@H](CCC(N)=O)NC(=O)[C@H](C)N)C(C)C)C(=O)N[C@@H](Cc1ccc(O)cc1)C(=O)N[C@@H](Cc1ccc(O)cc1)C(=O)O  IC50 (HLA class I histocompatibility antigen, A alpha chain; cell-free assay): 0.017 µM
OC[C@@]12C[C@@H]1[C@@H](n1cnc3c(NCc4ccccc4)nc(Cl)nc31)[C@H](O)[C@@H]2O  Ki (5-hydroxytryptamine receptor 2B (HTR2B, Homo sapiens, UniProt P41595); ligand displacement, radioligand): 1.75 µM

Some of these lines once more:
CSCC[C@H](NC(=O)[C@@H]1CCCN1C(=O)[C@@H](N)C(C)C)C(=O)N[C@@H](CCCNC(=N)N)C(=O)N[C@@H](CC(C)C)C(=O)N[C@@H](CCCNC(=N)N)C(=O)N[C@@H](CCCCN)C(=O)N[C@@H](CC(C)C)C(=O)N1CCC[C@H]1C(=O)N[C@@H](C)C(=O)N[C@@H](CO)C(=O)N[C@@H](Cc1ccccc1)C(=O)N[C@@H](Cc1ccccc1)C(=O)N[C@@H](CCCCN)C(=O)N1CCC[C@H]1C(=O)N1CCC[C@H]1C(=O)N[C@@H](CCC(=O)O)C(=O)O  Kd (TEAD4; binding, SPR; pH 7.4): 48.3 µM
COc1cc2c(cc1OC)CN(CCc1ccc(NC(=O)c3cccc4c(=O)c5cccc(OC)c5[nH]c34)cc1)CC2  Ki (Alpha-1B adrenergic receptor (ADRA1B, Homo sapiens, UniProt P35368); cell-free assay): 0.196 µM
CC(C)[C@H](NC(=O)[C@H](Cc1ccccc1)NC(=O)[C@H](CCCNC(=N)N)NC(=O)[C@H](CC(=O)O)NC(=O)[C@H](Cc1ccc(O)cc1)NC(=O)[C@@H](NC(=O)[C@@H](N)CCCCN)C(C)C)C(=O)N[C@@H](Cc1c[nH]cn1)C(=O)N[C@@H](Cc1ccccc1)C(=O)O  IC50 (HLA class I histocompatibility antigen, A alpha chain; cell-free assay): 0.0059 µM
